Published values of several laboratories.
Each numbered part is a random draw from the data of one study; scales do not carry over between parts.
Chain of UniProt Q8RYC8 (whole entry, looked up): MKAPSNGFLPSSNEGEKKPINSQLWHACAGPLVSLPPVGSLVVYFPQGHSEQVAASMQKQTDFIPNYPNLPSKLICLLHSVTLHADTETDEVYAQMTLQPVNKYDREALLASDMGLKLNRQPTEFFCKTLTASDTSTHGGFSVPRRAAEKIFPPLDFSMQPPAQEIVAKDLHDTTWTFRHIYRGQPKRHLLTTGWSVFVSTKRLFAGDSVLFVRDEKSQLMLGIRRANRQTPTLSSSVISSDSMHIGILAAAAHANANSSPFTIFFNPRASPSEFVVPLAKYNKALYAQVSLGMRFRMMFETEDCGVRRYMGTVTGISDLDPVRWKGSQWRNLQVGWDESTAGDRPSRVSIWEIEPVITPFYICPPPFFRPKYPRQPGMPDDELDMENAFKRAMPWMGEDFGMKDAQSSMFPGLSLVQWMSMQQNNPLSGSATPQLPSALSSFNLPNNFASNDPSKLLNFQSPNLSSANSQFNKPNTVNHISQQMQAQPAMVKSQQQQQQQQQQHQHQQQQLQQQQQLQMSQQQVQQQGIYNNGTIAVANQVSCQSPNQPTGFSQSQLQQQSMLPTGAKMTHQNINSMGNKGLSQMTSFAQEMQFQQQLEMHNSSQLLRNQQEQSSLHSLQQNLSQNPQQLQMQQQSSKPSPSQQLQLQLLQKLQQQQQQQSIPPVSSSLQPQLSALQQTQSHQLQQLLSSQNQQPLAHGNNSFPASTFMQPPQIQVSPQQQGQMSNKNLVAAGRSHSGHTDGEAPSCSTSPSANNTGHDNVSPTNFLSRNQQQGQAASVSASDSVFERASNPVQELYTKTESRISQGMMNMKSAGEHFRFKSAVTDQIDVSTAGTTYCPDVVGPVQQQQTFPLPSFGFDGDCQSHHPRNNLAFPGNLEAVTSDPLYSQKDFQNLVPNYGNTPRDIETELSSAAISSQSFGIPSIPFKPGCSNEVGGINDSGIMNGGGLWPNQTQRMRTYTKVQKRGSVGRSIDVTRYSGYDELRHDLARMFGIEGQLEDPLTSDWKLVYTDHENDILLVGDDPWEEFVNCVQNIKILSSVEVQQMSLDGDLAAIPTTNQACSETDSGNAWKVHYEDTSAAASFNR
Chain of UniProt O23661 (whole entry, looked up): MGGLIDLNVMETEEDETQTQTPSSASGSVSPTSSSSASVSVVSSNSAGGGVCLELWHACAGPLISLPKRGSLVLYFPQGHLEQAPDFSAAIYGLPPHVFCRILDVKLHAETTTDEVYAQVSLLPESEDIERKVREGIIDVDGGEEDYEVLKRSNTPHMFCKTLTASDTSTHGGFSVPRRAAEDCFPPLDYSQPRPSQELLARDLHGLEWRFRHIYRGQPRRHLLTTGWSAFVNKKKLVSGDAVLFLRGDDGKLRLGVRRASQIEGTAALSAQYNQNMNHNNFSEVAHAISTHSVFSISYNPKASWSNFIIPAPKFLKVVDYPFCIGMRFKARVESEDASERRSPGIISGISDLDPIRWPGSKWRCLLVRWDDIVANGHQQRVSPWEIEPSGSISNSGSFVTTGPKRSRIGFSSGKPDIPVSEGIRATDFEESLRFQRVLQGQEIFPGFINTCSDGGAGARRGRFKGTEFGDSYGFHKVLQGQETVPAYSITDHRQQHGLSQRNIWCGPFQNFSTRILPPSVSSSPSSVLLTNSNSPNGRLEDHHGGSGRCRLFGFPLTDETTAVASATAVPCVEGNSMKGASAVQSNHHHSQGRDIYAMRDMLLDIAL

Series 1
Target: RING finger protein unkempt homolog, zinc fingers 1-6, GST-SBP tag (UNK, Homo sapiens, UniProt Q9C0B0, residues 30-357)
Method: RNA Bind-n-Seq
Form: RNA
Medium: in vitro
Concentration: not given
Notes: RNA with constant flanks, human-mouse chimeric sites, ends assumed
Relative to: input RNA pool
Reading: higher = stronger binding
Constant ends, left off below: GGGAGUUCUACAGUCCGACGAUC … CAACAGAGGAUUGAGCAUCA
Target sequence (chain): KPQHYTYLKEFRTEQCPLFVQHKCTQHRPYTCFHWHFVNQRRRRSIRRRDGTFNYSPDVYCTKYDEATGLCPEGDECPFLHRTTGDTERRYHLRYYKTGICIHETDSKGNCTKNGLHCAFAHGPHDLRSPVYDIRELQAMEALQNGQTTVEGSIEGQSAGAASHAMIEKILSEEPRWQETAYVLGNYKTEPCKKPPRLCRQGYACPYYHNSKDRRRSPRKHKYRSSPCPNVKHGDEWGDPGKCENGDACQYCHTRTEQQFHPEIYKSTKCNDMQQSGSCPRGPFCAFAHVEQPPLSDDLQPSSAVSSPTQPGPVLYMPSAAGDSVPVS
Sequence	bound/input enrichment
GACAGUGAAGGCCCACUGUGUGAAUUGCUUUUUUUCUUCCUGACUGCAAUCUUCCAGGCAAUAGCUGAAGAAGAGGAGGAAGUAGCCAAAGAGCAACUAACUGAUGCUGACACCAAAGAU	0.0647 ratio
UACUCAACUUUCUUGCCACGUUUUGAAUUCCAAGAUGUUAUUCCUCCAGAUGACUUCCUAACGAGUGAUGAAGAGCAAGAUUUGGUUUUAUUUGGAACUAUGAGAGGACAAGUUGUUGGA	0.125 ratio
UCUUAACUUAUUCAUUUAACUUAUUUUUAGCACUUAGUAAAUAUUGUUAGUCUUAGUCAAUAGCUCACAUUUUUUGAGAAGCAUGCCCUCCCUGUCCAUUUGUCUUAUAACAUGACCCAG	391 ratio
UAAAUUAGCCAGCACCAUUUCUGUUUCUCCCUGGGCUGCGGAAAGCCAGAAGAUUUUAUCUAGCUUAUACAAGGCUGCUGGAGCUUGCUCUUUUUUUCCACGAGGGUGUUUUUGGCUGCA	0.819 ratio
GAUCAUGAACCACCAUCAGAAAUGAAGAUGAGAUUACCCAGACGAGCCCAAAACCGCGCGCUACAGAAAAGUAAACUUAACCUUGCAGAGUUCCUUAAUGAAGAUACUAAGUUAGGAAGC	0.361 ratio
GGAAUUGCUGAUUCAAGUAAGUUUGAGUAUCACAAUGUUAGCUUUCUAAUUCCAUAAAAGUACUUGGUUUUUACAGUUUAUAAUCUGACAUCACCCCAGCGCCAUUUAGAUCAGCUUACU	0.786 ratio
CCCCAAUACCAUUUGCAGGUCUGGAACUGCACUCUCUUUUUUAAAAAAUAUGCAUAUAUUUUAGGGCUGUAGAUUUAUUUUCCUGGUUUUGUUUUUCAUUGCUGACUUUUGAGCACAGAA	1.02 ratio

Series 2
Target: Histone acetyltransferase KAT6A, both winged helices, GST fusion (KAT6A, Homo sapiens, UniProt Q92794, residues 1-181)
Method: protein binding microarray
Form: double-stranded DNA, one strand shown
Medium: in vitro
Concentration: not given
Notes: 8-mer, flanks averaged, mean of 2 arrays, mostly near background
Relative to: not given
Reading: higher = stronger binding
Target sequence (chain): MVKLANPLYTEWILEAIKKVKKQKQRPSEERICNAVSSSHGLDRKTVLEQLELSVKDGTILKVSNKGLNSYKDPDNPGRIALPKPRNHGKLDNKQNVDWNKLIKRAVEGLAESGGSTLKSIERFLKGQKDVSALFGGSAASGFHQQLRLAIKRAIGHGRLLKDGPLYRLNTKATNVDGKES
Sequence	E-score
CCGATATA	0.00553
AGACAGCT	-0.186
ACGTCTGA	-0.027
CTTAGGAC	-0.0937
CCTGCACG	-0.0405
ATTCGCGA	0.0817
CTATTCCA	-0.13
AAGGCTAT	-0.0965
AGGAAATG	-0.188
AGTGTCCG	0.066
AAGTCTGC	-0.0605
GCCAACCC	-0.00598

Series 3
Target: Sal-like protein 4, full length isoform B (SALL4, Homo sapiens, UniProt Q9UJQ4-2, residues 1-616)
Method: universal PBM
Form: double-stranded DNA, one strand shown
Medium: in vitro
Concentration: not given
Notes: 8-mer, flanks averaged, mean of replicates
Reading: higher = stronger binding
Sequence	E-score
ACGGATGC	0.0372
TAACGCGA	0.0102
ACCCTCTA	0.014
AGTATCTG	-0.0418
CATTGTAC	0.147
GGCGTGCA	-0.171
AGCACTTG	-0.281
AAACCGGT	-0.173
CCCAGTGA	-0.177
ACAAGACG	-0.0147
CTGTCTCA	0.0786
CCTGTCAA	-0.0243

Mixed results
Molecule	tested on	assay	test system	setting	scale	measurement	value
YWHAQ (Homo sapiens, UniProt P27348)	YWHAZ (Homo sapiens, UniProt P63104)	cross-linking MS		hits only		interaction screen	cross-linked
PhoQ, residues 284 288 289 292 302 303 DDMDFR	PhoP, residues 12 14 15 18 19 LHATL (Escherichia coli, UniProt P23836)	Sort-seq, measured: YFP reporter	E. coli	PhoQ-PhoP variant library, added: 10 µM Mg2+	relative to: high Mg2+ state, higher = stronger signaling	fold induction	0.545
ETT (Arabidopsis thaliana, UniProt O23661)	ARF19 948-1086 (Arabidopsis thaliana, UniProt Q8RYC8)	two-hybrid			relative to: out of 4 tests, higher = firmer interaction	positive tests	0

A few entries again (mixed results):
Molecule	tested on	assay	test system	setting	scale	measurement	value
ETT (Arabidopsis thaliana, UniProt O23661)	ARF19 948-1086 (Arabidopsis thaliana, UniProt Q8RYC8)	two-hybrid			relative to: out of 4 tests, higher = firmer interaction	positive tests	0
YWHAQ (Homo sapiens, UniProt P27348)	YWHAZ (Homo sapiens, UniProt P63104)	cross-linking MS		hits only		interaction screen	cross-linked
PhoQ, residues 284 288 289 292 302 303 DDMDFR	PhoP, residues 12 14 15 18 19 LHATL (Escherichia coli, UniProt P23836)	Sort-seq, measured: YFP reporter	E. coli	PhoQ-PhoP variant library, added: 10 µM Mg2+	relative to: high Mg2+ state, higher = stronger signaling	fold induction	0.545
